Results pooled from the literature.
Compare with care: the assays were run in different laboratories. “And” joins repeats or separate records; there may be more than shown. Numbers after ± are the reported error.

Cc1nc(N)nc2c1C(=O)N[C@@H](c1ccc(F)cc1-c1cccc(O[11CH3])n1)C2 gave an SUV of 4.7 ± 1.6 (radioligand, ex vivo biodistribution; healthy mouse, white blood cells; 60 min p.i.).
CC(C)OCCOCc1ccc(OCC(O)CN(N=O)C(C)C)cc1 (stereo not drawn) — result for “revertant fold increase”: 0.6 fold (Salmonella typhimurium; Ames test; TA98; 5000 µg/plate, 30 % rat S9; baseline: solvent control).
With N#C[C@@H]1CC(F)(F)CN1C(=O)CNC(=O)c1ccnc2c(NC(=O)[C@@H](N)CCCCNC(=O)CCOCCOCCOCCOCCOCCOCCNC(=O)CN3CCN(CC(=O)[O-])CCN(CC(=O)[O-])CCN(CC(=O)[O-])CC3)cccc12.[177Lu+3] the tracer uptake was 0.23 %ID/g (U-87 MG tumour model; host not given, liver; 24 h, tumour-bearing).
O=C1C2CC3CC1CC(C(=O)N1CCN(c4ccc([N+](=O)[O-])c5ncccc45)CC1)(C3)C2 — result for “mean revertant colonies”: 26 colonies/well (Salmonella typhimurium; Ames test; TA100; 0.13 µg/well, with S9).
C=C(NC(=O)c1csc(-c2nc3c(cc2O)-c2nc(cs2)C(=O)NC(C(C)O)C(=O)NC(=C(C)OC)c2nc(cs2)C(=O)NC2c4nc(cs4)C(=O)NC(COC(=O)c4c5c6c(cccc6n4O)COC(=O)C(OC4CC(C)(O)C(N(C)C)C(C)O4)C2OC5)c2nc-3cs2)n1)C(N)=O (stereo not drawn) has an MRT(0-last) of 1.66 h (Sprague-Dawley rat, male, plasma; intravenous infusion, 6 mg/kg, multiple doses, day 1).
With CNC(=O)C1CCCN(C(=O)C2CC3CCC2N3C(=O)[C@@H]2C[C@@H](O)CN2C(=O)NCc2cccc(Cl)c2F)C1 (mixture of isomers) the remaining activity was 102% (CYP3A4 (human); inhibitor, time-dependent inhibition; 0.617 µM, preincubated without NADPH, added: testosterone substrate; baseline: negative control).
For CCN(CC)CC#CCNc1ccnc2cc(Cl)ccc12, “revertants per well” read 3 (Salmonella typhimurium; mini-Ames test; TA1535; 62.5 µg/well, without S9).
CCc1c(-c2ccc3[nH]ncc3c2)cnc(N)c1-c1ccc(O)cc1 has a viability of 6.98% and 9.96% (CHP-212 resistant sublines (heterozygous USP7 V517F); cell viability; 50 µM).
O=C(Nc1cnccc1-c1ccc([18F])cc1)c1ccnc(NC(=O)C2CC2)c1 has an SUV of 0.23 (ex vivo gamma counting; FVB/NJ mice, both sexes, cerebellum; intravenous, 120 min, mean, P-gp inhibitor pretreatment, added: tariquidar 15 mg/kg iv).

Excerpt of the above:
CCc1c(-c2ccc3[nH]ncc3c2)cnc(N)c1-c1ccc(O)cc1 has a viability of 6.98% and 9.96% (CHP-212 resistant sublines (heterozygous USP7 V517F); cell viability; 50 µM).
